Measurements from different studies.
Protocols differ between the studies behind these lines.
Target: Procathepsin L (CTSL, Homo sapiens, UniProt P07711)
Chain of UniProt P07711 (whole entry, looked up): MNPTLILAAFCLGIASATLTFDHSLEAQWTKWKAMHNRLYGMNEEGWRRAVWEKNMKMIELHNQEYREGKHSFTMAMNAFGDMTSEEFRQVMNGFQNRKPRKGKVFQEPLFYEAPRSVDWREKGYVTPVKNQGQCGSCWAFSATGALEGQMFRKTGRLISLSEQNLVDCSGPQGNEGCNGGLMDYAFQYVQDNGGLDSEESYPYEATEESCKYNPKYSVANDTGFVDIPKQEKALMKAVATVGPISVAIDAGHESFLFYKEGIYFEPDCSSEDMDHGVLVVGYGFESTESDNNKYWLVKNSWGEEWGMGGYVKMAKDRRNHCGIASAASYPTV

| Compound | test | setting | scale | measurement | value |
| --- | --- | --- | --- | --- | --- |
| COc1ccc2c(c1NC(=O)OCc1ccc(NC(=O)C(CCCNC(N)=O)NC(=O)C(NC(=O)CCCCCN3C(=O)CC(SCC(NC(C)=O)C(=O)O)C3=O)C(C)C)cc1)CCC=C2c1cc(OC)c(OC)c(OC)c1 (mixture of isomers) | enzyme activity, substrate, HPLC | 1.5 h, pH 5.5, 25 °C, human enzyme, together with: CTSL 600 nM | – | payload release | 57% |
| CCCNC(=O)[C@H]1O[C@@H]1C(=O)N[C@H](C(=O)N1CCC[C@H]1C(=O)OCC1=C2C(C)=CC(C)=[N+]2[B-](C)(C)n2c(C)cc(C)c21)[C@@H](C)CC | inactivator | light | baseline: cathepsin B over CTSL | selectivity ratio | 220 |
| Oc1ccc(/C=N/C23CC4CC(CC(C4)C2)C3)cc1 | enzyme activity, inhibitor | 100 µM, with preincubation | – | inhibition | -51% |
| Cc1cc(C)nc(Sc2nc3sccn3c2[N+](=O)[O-])n1 | FRET | – | – | Hill slope | 1.34 |
| CS(C)(=O)=Nc1ccc(-c2ccc(-c3nc4cc(O[C@@H]5CO[C@H]6[C@@H]5OC[C@H]6O)[nH]c4cc3F)cc2)cc1 | enzyme activity, inhibitor | 10 µM | – | inhibition | 24% |
| Oc1ccccc1/C=N/C12CC3CC(CC(C3)C1)C2 | enzyme activity, inhibitor | 100 µM, with preincubation | – | inhibition | -14% |
| CC(C)C[C@H](NC(=O)[C@H]1O[C@@H]1C(=O)O)C(=O)NCCCCN=C(N)N | – | – | – | Hill slope | -1.71 |
| Oc1cccc(/C=N/C23CC4CC(CC(C4)C2)C3)c1 | enzyme activity, inhibitor | 100 µM, with preincubation | – | inhibition | 4% |
| O=C(Oc1cncc(Cl)c1)c1cccc2[nH]ccc12 | enzyme activity, inhibitor | 10 µM | – | inhibition | 2% |
